Experimental data collected from several papers.
A part holds a random share of what one study measured. Changes are numbered by the printed parent chain.

Set 1 — method: protein binding microarray; form: double-stranded DNA, one strand shown; matrix: in vitro; tested at: not given; baseline: not given; direction: higher = stronger binding
Target: Histone acetyltransferase KAT6A, winged helix 1, GST fusion (KAT6A, Homo sapiens, UniProt Q92794, residues 1-85)
Setting: 8-mer, flanks averaged, mean of 2 arrays, mostly near background
Construct (chain): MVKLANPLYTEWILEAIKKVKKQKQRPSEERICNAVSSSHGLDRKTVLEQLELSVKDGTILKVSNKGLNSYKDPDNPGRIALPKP
The E-score of `AATTAAGG` is reported as -0.0919.
The E-score of `ACATCTCT` is reported as -0.0638.
The E-score of `ACGCGCGA` is reported as 0.419.
The E-score of `AGAGTCGG` is reported as 0.0438.
For `CAACTCGG`, the E-score was -0.0629.
For `AATGGATG`, the E-score was -0.229.
For `CATTTTAC`, the E-score was -0.0186.
With `GTTAACTA` the E-score was 0.161.
`ATATCCTA` has an E-score of 0.00607.
With `GGGCCATA` the E-score was 0.123.
`TCGTCCAA` has an E-score of -0.0601.
With `CCTGCTTC` the E-score was 0.0415.
For `GTACATGA`, the E-score was -0.0114.
For `CTATCGCA`, the E-score was -0.0197.
`TCCCGTAA` has an E-score of 0.242.
With `AGACTTGC` the E-score was -0.106.
The E-score of `GGAGTTAA` is reported as -0.103.
With `AAGCGGTA` the E-score was 0.232.
`ATGACATA` has an E-score of -0.248.
The E-score of `AGCTATAT` is reported as -0.102.
With `CGGCTTAG` the E-score was 0.251.
With `CCTTACGC` the E-score was 0.136.
`GACAGTGC` has an E-score of -0.0283.

Set 2 — method: RNA Bind-n-Seq; form: RNA; matrix: in vitro; tested at: not given; setting: RNA with constant flanks, ends assumed; baseline: input RNA pool; direction: higher = stronger binding
Target: RING finger protein unkempt homolog, zinc fingers 1-6, GST-SBP tag (UNK, Homo sapiens, UniProt Q9C0B0, residues 30-357)
Residues (chain): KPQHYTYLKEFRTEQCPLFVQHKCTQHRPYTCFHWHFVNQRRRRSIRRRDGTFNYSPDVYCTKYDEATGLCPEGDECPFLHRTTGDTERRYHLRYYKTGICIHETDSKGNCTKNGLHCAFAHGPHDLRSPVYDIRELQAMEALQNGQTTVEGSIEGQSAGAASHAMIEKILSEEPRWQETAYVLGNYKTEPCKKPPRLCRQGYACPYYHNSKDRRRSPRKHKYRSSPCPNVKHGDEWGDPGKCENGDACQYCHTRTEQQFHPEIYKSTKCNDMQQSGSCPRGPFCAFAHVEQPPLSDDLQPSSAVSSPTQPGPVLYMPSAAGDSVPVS
The bound/input enrichment of `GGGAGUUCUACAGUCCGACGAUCCCACCACCAGUGGUUCUCCAGAGCCUAAAUGGAAUACUUAAAACACACUGCUGAGUUGUACCGUUUCUUUUUCUUUUAUAUAUAUAUAUAUGUGUAUAUGUAACAAAGCAUUAUUCAGGUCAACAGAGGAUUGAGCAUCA` is reported as 0.281 ratio.
`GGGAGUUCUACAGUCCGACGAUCCCCCCAGACACUGCUGCCAGGCUGGGCUGGUCCCAGCCCUUAGGUAACCUCCAAGCUCCCUCCGGCUAUGAUAAGUUUAGCUAUUCUUGGCGGAGCAAGAAAGGCACCAAGUUCCACCAGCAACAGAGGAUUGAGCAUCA` gave a bound/input enrichment of 0.292 ratio.
With `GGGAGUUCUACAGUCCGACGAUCUACAGCUUGCCUUUUUAAUGUUAGUCACAAUGUUUUUGUGGUUUGAAGUUUAGUUUAAUGUCCGUGCAGUGACAGGAAAUACACAUUAUGCUGAUGUUGAUGACAGAAUUUAUUUGGUUGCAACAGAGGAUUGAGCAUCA` the bound/input enrichment was 0.597 ratio.
For `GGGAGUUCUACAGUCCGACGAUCUUACAAGUAUUUUAAUUUAAGUUCAGUGAACUUUUUUGUAGCUGGGUUAAAUCUUUUUAUUUCCGUAUGGCCUUAUGGCAAAGAACACUGUAUUAUUUUAAUAAUCACACAAUUGUGACGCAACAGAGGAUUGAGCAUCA`, the bound/input enrichment was 0.929 ratio.
For `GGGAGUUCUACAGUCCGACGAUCGUUCUCUCUGUCACUGACUUAUUUGUAAGAGAAAAUUAGUUGGACUUGUUUAUUUUCCCGCCGCUUUUAUAAGUACACUCAAGAAUUUGUCAGGGAGAAUAAUUCUGAUAGUGCAUCCCACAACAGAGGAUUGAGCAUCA`, the bound/input enrichment was 0.0703 ratio.
For `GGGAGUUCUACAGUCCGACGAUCCUUGAUUAUCUCAAGAGGGAAUGCGAGGCAAAAAGUGAAGUUAUGUUUUUUGCUGAUGCUACCCGCCACUUGGAAGAGAAGAAGAGGAAGAGGAAAAAGAGGGAGAAGUUGAUUCUAACGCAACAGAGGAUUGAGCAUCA`, the bound/input enrichment was 0.212 ratio.
With `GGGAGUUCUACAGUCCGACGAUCAAAGUUAUCUCUCUUUAGGCACGAAGAGCAAUUCAGAAAAAUAUGACUUUUAUUGAUGAAAACCGAGUUAUGCUUAAAUAUCUCUUCCCUUUGAAUGAAAUUGUGGUAGAUUUUUAUGACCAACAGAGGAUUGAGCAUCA` the bound/input enrichment was 0.735 ratio.
`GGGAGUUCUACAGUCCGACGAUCGUGGUUGGGGUGUGAGUGGGCGUUUUCUUAAUGAUAUGCUGCUAGGAUUUCAUGGGCAGCAACCGCCCCGAAGUCUAUGAUCUAGACUCCAGAUUCCAGAGGGACCUUAAGGUUCCCUUCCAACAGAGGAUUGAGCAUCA` has a bound/input enrichment of 0.162 ratio.
The bound/input enrichment of `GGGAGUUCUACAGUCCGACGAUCUGUCUUUAUUUGACGAAAACGAGCUGUUGCGCAGCCAUUGGUACCUGUAUUGGGGAAACACCGCAUACAAGCAAGAAGCUUACAGCCUCAGUGGCGAAAAUUUUUUCAUGUCAGAGACCGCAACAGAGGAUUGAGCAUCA` is reported as 0.096 ratio.
`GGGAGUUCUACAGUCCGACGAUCUCUGAUGACUUUAAUUUUAAAAUCUUGUGACAUUUUGCUUAUACUAAAAGUUAUCUAUCUUCCGUUGAAUAUUUUCUUUUGGAGAGAUUGUAUAUUUUAAAAUACUGUUUAGAGUUUAUGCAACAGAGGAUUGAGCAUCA` has a bound/input enrichment of 0.454 ratio.
The bound/input enrichment of `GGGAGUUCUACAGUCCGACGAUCCUUCAUUUUACACUAAAGCAUAAUGUCAUGAAGUUUCAUAUCUGUACAGAUUAUUUAAAUCACCGAAAUGAAAAAUGUUCUCUGCUUGCUACCAAAGGACAAACUCUUGGAAACGGACAUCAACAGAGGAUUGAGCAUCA` is reported as 0.135 ratio.

Set 3 — method: protein-binding microarray; form: double-stranded DNA, one strand shown; matrix: in vitro; tested at: not given; direction: higher = stronger binding
Target: Max dimerization protein 1, bHLH-zipper, MAX partner unstated (MXD1, Homo sapiens, UniProt Q05195, residues 56-136)
Setting: k-mer, scored over probes, only values ≥0.25
Residues (chain): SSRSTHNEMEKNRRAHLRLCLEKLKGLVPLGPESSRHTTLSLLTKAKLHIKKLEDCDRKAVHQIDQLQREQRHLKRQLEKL
The E-score of `ACGCGGTG` is reported as 0.29.
With `CATGCGAG` the E-score was 0.365.
`CGTACACG` gave an E-score of 0.354.
`ACGTGAAA` gave an E-score of 0.322.
For `CCCGCCCA`, the E-score was 0.401.
The E-score of `CCATGCAA` is reported as 0.331.
The E-score of `AAACGTGC` is reported as 0.398.
With `CGCGCCCC` the E-score was 0.252.
The E-score of `ATGTGTGA` is reported as 0.257.
The E-score of `CGGACACG` is reported as 0.329.
With `AACGAGGA` the E-score was 0.273.
`CAACACGA` has an E-score of 0.282.
The E-score of `AGGCGGGG` is reported as 0.39.
The E-score of `AATCACAT` is reported as 0.279.
With `AAAGCATG` the E-score was 0.394.
With `CGTGGCTA` the E-score was 0.295.
The E-score of `ATGTTGCA` is reported as 0.266.
`ACCCCCCC` gave an E-score of 0.28.
`GTCACGCA` has an E-score of 0.297.
For `GCACGAGA`, the E-score was 0.331.
`ACGCGCAT` gave an E-score of 0.321.
The E-score of `CGCCCGCC` is reported as 0.285.
With `ACTGCATG` the E-score was 0.263.

Set 4 — method: DHFR PCA, deep sequencing; matrix: yeast; together with: (+)-ABA 0 µM; baseline: wild-type fitted maximum; direction: higher = stronger binding
Target: ABI1, truncated, D143A, DHFR fusion (Arabidopsis thaliana)
Setting: methotrexate growth selection, single substitutions
Starting sequence: PYL1, truncated, DHFR fusion (Arabidopsis thaliana); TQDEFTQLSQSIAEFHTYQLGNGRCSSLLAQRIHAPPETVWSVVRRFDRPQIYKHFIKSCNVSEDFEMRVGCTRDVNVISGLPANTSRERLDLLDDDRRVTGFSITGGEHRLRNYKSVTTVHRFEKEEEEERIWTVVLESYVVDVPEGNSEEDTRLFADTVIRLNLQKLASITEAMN
For `I162S`, “relative binding score” read 6.6%.
`V70D`: “relative binding score” -0.308%.
`S9Q` — result for “relative binding score”: 56.4%.
`R45N`: “relative binding score” -0.597%.
`S11Y`: “relative binding score” 26.6%.
Under “relative binding score”, `K126Q` is recorded as 43.2%.
For `D96E`, “relative binding score” read 34.9%.
For `L156H`, “relative binding score” read 0.697%.
For `S27K`, “relative binding score” read 3.16%.
`H34V`: “relative binding score” 0.872%.
Under “relative binding score”, `C25D` is recorded as 0.0123%.
For `F56Q`, “relative binding score” read -2.24%.
`E139I` — result for “relative binding score”: -16.5%.
For `L93I`, “relative binding score” read 58.7%.

Repeated from above (set 4):
`V70D`: “relative binding score” -0.308%.
`S9Q` — result for “relative binding score”: 56.4%.
`R45N`: “relative binding score” -0.597%.
`S11Y`: “relative binding score” 26.6%.
Under “relative binding score”, `K126Q` is recorded as 43.2%.
For `D96E`, “relative binding score” read 34.9%.
For `L156H`, “relative binding score” read 0.697%.
For `S27K`, “relative binding score” read 3.16%.
`H34V`: “relative binding score” 0.872%.
Under “relative binding score”, `C25D` is recorded as 0.0123%.
For `F56Q`, “relative binding score” read -2.24%.
